Measured values collected from several papers.
Each numbered part is a random draw from the data of one study; scales do not carry over between parts. Substitutions count along the parent as printed.

Set 1
Target: Fragile X messenger ribonucleoprotein 1, C-terminal low-complexity region (Fmr1, Mus musculus, UniProt P35922)
Technique: RNA Bind-n-Seq
Molecule type: RNA
Sample: in vitro
Concentration: 200 nM
Setting: whole 134-nt RNA, ends assumed
Together with: 150 mM LiCl
Baseline: input library
Reading: higher = stronger binding
All molecules: 7-deaza-guanosine replaces G
Shared flanks, not repeated: GGGAGUUCUACAGUCCGACGAUC … UGGAAUUCUCGGGUGUCAAGG
Oligonucleotide	log2 enrichment
UCAAGUCCUGUGCUACACAUCGUAUGUACCGAAUCGGGUUGGGGUUGGGUUGGGGAAAGUAUUAUGUUACGCCGUUCGGAUCUGCACUUC	-0.111
GCUGUGACCCCAACGCCGGUGCCCGUGGUCGGGAGCCAGAUGACCAGACAAGCCCGGCGCCUCUACGUGGGCAACAUCCCCUUUGGCAUC	-0.135
CUCAAGUCCUGUGCUACACAUCGUAUGUACCGAAUCGGCCGGGGCCGGGCCGGGAAAGUAUUAUGUUACGCCGUUCGGAUCUGCACUUCC	-0.29
CAAGUCCUGUGCUACACAUCGUAUGUACCGAAUCGGAAAGGAAAGGAAAAAAAGGAAAGUAUUAUGUUACGCCGUUCGGAUCUGCACUUC	-0.347
CUCAACGUUGACAGUAAUGAACAAGGCUCCUAUGUAGUGGCCAUGGAAACCUUUACCAACUUAGGACCCAUUGUCGAUAUGUGCGUGGUG	-2.01
AAGUCCUGUGCUACACAUCGUAUGUACCGAAUCGGGCCCCGGGCCCCGGGCCCCGGGAAAGUAUUAUGUUACGCCGUUCGGAUCUGCACU	-1.47
UCCUCAAGUCCUGUGCUACACAUCGUAUGUACCGAAUCGGGGAGGAGGAGGGAAAGUAUUAUGUUACGCCGUUCGGAUCUGCACUUCCAG	-0.711
CCUGUGCUACACAUCGUAUGUACCGAAUCGGUUUUUUGGGUUUUUUGGGGUUUUUUGGGGAAAGUAUUAUGUUACGCCGUUCGGAUCUGC	-1.17

Set 2
Target: Sal-like protein 4, full length isoform A (SALL4, Homo sapiens, UniProt Q9UJQ4, residues 1-1053)
Sequence of UniProt Q9UJQ4 (whole entry, looked up): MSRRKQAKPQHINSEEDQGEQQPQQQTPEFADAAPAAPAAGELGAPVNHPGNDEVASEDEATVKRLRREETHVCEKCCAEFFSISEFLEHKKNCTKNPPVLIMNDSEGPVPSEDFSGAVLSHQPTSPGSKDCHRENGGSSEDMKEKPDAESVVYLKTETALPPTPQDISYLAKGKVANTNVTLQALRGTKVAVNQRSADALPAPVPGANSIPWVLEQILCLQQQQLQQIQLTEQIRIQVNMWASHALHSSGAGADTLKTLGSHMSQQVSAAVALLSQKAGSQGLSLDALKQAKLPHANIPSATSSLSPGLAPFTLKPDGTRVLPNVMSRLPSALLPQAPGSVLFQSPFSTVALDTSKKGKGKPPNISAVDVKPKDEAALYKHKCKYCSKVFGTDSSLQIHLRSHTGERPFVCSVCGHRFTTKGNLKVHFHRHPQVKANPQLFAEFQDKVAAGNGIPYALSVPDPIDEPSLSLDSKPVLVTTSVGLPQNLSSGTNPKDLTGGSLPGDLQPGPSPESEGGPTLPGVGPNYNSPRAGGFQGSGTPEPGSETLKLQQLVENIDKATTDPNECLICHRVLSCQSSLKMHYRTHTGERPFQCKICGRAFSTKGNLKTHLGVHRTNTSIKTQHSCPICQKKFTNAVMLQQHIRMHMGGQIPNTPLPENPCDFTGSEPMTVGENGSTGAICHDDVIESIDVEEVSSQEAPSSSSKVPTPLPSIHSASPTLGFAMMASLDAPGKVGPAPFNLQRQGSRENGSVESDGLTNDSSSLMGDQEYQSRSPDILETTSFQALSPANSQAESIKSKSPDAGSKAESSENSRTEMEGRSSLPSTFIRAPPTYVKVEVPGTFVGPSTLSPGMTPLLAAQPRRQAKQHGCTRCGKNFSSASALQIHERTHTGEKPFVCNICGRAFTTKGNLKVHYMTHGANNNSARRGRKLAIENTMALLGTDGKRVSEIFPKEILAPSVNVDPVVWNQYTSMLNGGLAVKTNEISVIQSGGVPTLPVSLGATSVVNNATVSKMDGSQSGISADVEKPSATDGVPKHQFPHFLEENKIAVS
Technique: universal PBM
Molecule type: double-stranded DNA, one strand shown
Sample: in vitro
Concentration: 600 nM
Setting: 8-mer, flanks averaged, mean of replicates
Reading: higher = stronger binding
Oligonucleotide	E-score
AAACCATG	0.0176
GAGAGGGC	-0.361
ATCTGCCG	-0.184
AGTCGACT	0.197
TAGATTGA	0.163
CACAGGCA	-0.138
AAGTACCG	0.0179
AGGATGCA	-0.145
GGAAATAA	0.335
GAGGAGCA	-0.18
CGTTAACC	-0.0843
ACTCCTGC	0.0118
ATGGCGTA	-0.0327
ACCGCCTG	-0.317
CCGGGTAG	-0.324
CCGTCTAG	-0.254
ATCCTGGC	-0.0573
ACGGGTGA	-0.115
CAAAAGTG	0.14
CATTCGTC	-0.0307
GCCGCGTA	-0.192
CGGTCCAC	-0.357

Set 3
Target: CCNE1, cyclin fold, Cln2 fusion (human)
Technique: yeast growth competition, sequencing
Sample: yeast
Setting: weak parent motif
Baseline: not given
Reading: higher = stronger binding
Starting sequence: SLBP docking peptide (human); ARYKRKLLINDFG
Change	normalised enrichment score
ARYNRKLLINDFG [K4N]	0.82
ARYKRKLLINDLG [F12L]	0.707
ARYKRKLLINQFG [D11Q]	0.601
ARYKSKLLINDFG [R5S]	1.08
ARYIRKLLINDFG [K4I]	0.62
ARYKRKLCINDFG [L8C]	0.345
ARYKRELLINDFG [K6E]	0.128
ARYKRKLRINDFG [L8R]	0.106
ARYKIKLLINDFG [R5I]	0.503
RRYKRKLLINDFG [A1R]	0.44
ACYKRKLLINDFG [R2C]	0.795
ARYKRKLLINDIG [F12I]	0.295
ARRKRKLLINDFG [Y3R]	0.0131
ARYKRKLLINDFL [G13L]	-0.599
PRYKRKLLINDFG [A1P]	0.152
ARYKRKLNINDFG [L8N]	0.955
ARYKRKLLINDFA [G13A]	0.047
ARLKRKLLINDFG [Y3L]	0.763
ARYKKKLLINDFG [R5K]	0.479
ARKKRKLLINDFG [Y3K]	-0.363
ARYKRKWLINDFG [L7W]	0.00278
ARYKRKLLKNDFG [I9K]	2.31
ARYKFKLLINDFG [R5F]	0.353
ARYKRKLLINDKG [F12K]	-0.0485
ARYKRKLLILDFG [N10L]	1.78

Set 4
Target: MAFG, bZIP domain (human)
Technique: DHFR protein complementation
Sample: yeast
Setting: single substitutions, most at no-binding floor
Baseline: wild-type JUN-FOS pair
Reading: higher = stronger binding
Starting sequence: JUN, bZIP domain (human); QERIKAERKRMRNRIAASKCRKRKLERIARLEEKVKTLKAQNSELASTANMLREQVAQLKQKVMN; partner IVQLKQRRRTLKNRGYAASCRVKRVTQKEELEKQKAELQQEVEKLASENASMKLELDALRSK
Change	binding fitness
S47P	-1.47 natural log
R30M	-1.28 natural log
K39W	-1.51 natural log
R30E	-1.33 natural log
M51R	-1.39 natural log
A40V	-1.47 natural log
T48D	-1.41 natural log
R30N	-1.36 natural log
A49F	-1.42 natural log
V35P	-1.51 natural log
A49L	-1.2 natural log
V35R	-1.48 natural log
K39H	-1.52 natural log
I28V	-1.43 natural log
A29S	-1.56 natural log
M51N	-1.5 natural log
Q41W	-1.48 natural log
L31R	-1.45 natural log
V35E	-1.52 natural log
Q41K	-1.61 natural log
R30G	-1.35 natural log
L45P	-1.49 natural log

Set 5
Target: RNA binding protein fox-1 homolog 2, RRM domain, GST-SBP tag (RBFOX2, Homo sapiens, UniProt O43251-10, residues 100-194)
Technique: RNA Bind-n-Seq
Molecule type: RNA
Sample: in vitro
Concentration: 365 nM
Setting: natural RNA segment, single round, ends assumed
Baseline: no-protein control
Reading: higher = stronger binding
Shared flanks, not repeated: GGGAGUUCUACAGUCCGACGAUC … UGGAAUUCUCGGGUGCCAA
Target sequence (chain): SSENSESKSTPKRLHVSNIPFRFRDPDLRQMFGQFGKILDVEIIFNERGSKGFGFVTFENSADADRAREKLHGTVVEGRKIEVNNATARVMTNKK
Oligonucleotide	RBNS enrichment (R)
UGGCCUCUCACCCCCAAGGCUGUCUCUGGCCCUGCCGAGCCUAUGGGAGUCCCGGGACAGAGUGCCCACUCCCCUCUACUUGCUGCUCUGGGCCUCCCCACCUUUCCUGG	0.244
CAGCCCCACAUCCACAUUCUGUUAGAAUGUAGCUCAGGGAGCUUCGUGGACGGCCUUGCUUGCUGUAGCGUUGUAGGGGCCCUGCCUGCACUGCGGUUGUCCACGGUCAC	0.49
CUCCUGAUGUAAACAUUUCCCCCACUUUCCAAAUAAUGGUAAAGAAAACAGUGGCAAGGGCUGUUCUGUUUUCUGGUACCUGAGUGAAACUCAGAAGAAAAGCAGGCUUA	0.472
UCUUUUCCCAAGUGAAUUCCCUUUUAUUCAUGAGAACAAAAGUACUUAGAUACUAUAAAACCUUAAUUUCCCCAACUUUUAAAAUAAAAUGGAAUAUUUGCUGAAUGAAU	0.834
AGCUGGGACAAGGCCUUGCCCCCUUCCUGCCAUCUCCCCAACCCACAGUCUCUCCACCUUUGCUUCUGAAUUCUUGUUUUUGAGCAAUAAACAGAAAAUCGCCACUUGUA	0.434
AUGUUACGUCCUCCCCCCACCCCCUUCUUUCAGUGGUAUGCAACCACUGCAAUCACUGUGCAUAUGUCUUUUCUUAGCAAAAGGAUUUUAAAACUUGAGCCCUGGACCUU	0.791
GUGAUUGUACCAAGGAACUUAGCCUCAUGUAGCAUGUACAGGGUUGUAAUGGUGACCCAGCAGCGAGCUCUCUCCCAGUAAUUUGUUCCGCAUGUGUAGUCUCCCCUCGC	40
CUGCAGCGCGUGCGCGGUGAGAGGCCCUUUUUGAGCCUGUUUACUCCUGUGGCCUUGGGCAGAACAGUAAAUACUCUGUGCACGGAGGAAAGACAUGCCCAAGAGGAAGG	0.519

Other studies, line by line
Substance	target	assay	system	setting	scale	quantity	value
PhoQ, residues 284 288 289 292 302 303 AGGCYF	PhoP, residues 12 14 15 18 19 LHSVW (Escherichia coli, UniProt P23836)	Sort-seq, measured: YFP reporter	E. coli	PhoQ-PhoP variant library, together with: 10 µM Mg2+	baseline: high Mg2+ state, higher = stronger signaling	fold induction	19.5

Excerpt of the above (set 5):
Oligonucleotide	RBNS enrichment (R)
UGGCCUCUCACCCCCAAGGCUGUCUCUGGCCCUGCCGAGCCUAUGGGAGUCCCGGGACAGAGUGCCCACUCCCCUCUACUUGCUGCUCUGGGCCUCCCCACCUUUCCUGG	0.244
CAGCCCCACAUCCACAUUCUGUUAGAAUGUAGCUCAGGGAGCUUCGUGGACGGCCUUGCUUGCUGUAGCGUUGUAGGGGCCCUGCCUGCACUGCGGUUGUCCACGGUCAC	0.49
CUCCUGAUGUAAACAUUUCCCCCACUUUCCAAAUAAUGGUAAAGAAAACAGUGGCAAGGGCUGUUCUGUUUUCUGGUACCUGAGUGAAACUCAGAAGAAAAGCAGGCUUA	0.472
UCUUUUCCCAAGUGAAUUCCCUUUUAUUCAUGAGAACAAAAGUACUUAGAUACUAUAAAACCUUAAUUUCCCCAACUUUUAAAAUAAAAUGGAAUAUUUGCUGAAUGAAU	0.834
AGCUGGGACAAGGCCUUGCCCCCUUCCUGCCAUCUCCCCAACCCACAGUCUCUCCACCUUUGCUUCUGAAUUCUUGUUUUUGAGCAAUAAACAGAAAAUCGCCACUUGUA	0.434
AUGUUACGUCCUCCCCCCACCCCCUUCUUUCAGUGGUAUGCAACCACUGCAAUCACUGUGCAUAUGUCUUUUCUUAGCAAAAGGAUUUUAAAACUUGAGCCCUGGACCUU	0.791
GUGAUUGUACCAAGGAACUUAGCCUCAUGUAGCAUGUACAGGGUUGUAAUGGUGACCCAGCAGCGAGCUCUCUCCCAGUAAUUUGUUCCGCAUGUGUAGUCUCCCCUCGC	40
CUGCAGCGCGUGCGCGGUGAGAGGCCCUUUUUGAGCCUGUUUACUCCUGUGGCCUUGGGCAGAACAGUAAAUACUCUGUGCACGGAGGAAAGACAUGCCCAAGAGGAAGG	0.519
